Measured values collected from several papers.
Numbered parts are unrelated; each lists some results of a single study. Positions count from the first letter of the parent shown.

Set 1
Target: CCNE1, cyclin fold, Cln2 fusion (human)
Technique: yeast growth competition, sequencing
Medium: yeast
Setting: strong parent motif
Baseline: not given
Direction: higher = stronger binding
Parent: RBL1 docking peptide (human); GSAKRRLFGEDPP; partner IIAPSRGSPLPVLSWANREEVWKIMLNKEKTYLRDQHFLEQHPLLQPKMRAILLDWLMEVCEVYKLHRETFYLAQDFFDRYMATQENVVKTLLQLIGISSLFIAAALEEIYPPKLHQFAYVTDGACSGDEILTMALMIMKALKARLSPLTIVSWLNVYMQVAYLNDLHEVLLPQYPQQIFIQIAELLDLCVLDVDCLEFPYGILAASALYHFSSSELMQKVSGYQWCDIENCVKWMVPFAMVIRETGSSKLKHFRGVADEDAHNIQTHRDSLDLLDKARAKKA
Substitution	normalised enrichment score
G9L	6.71
R5K F8L	-0.00477
G9W	7.33
L7C	0.791
P12W	6.4
G9P	6.46
E10C	4.81
A3S	1.7
G9Y	6.32

Set 2
Target: Histone acetyltransferase KAT6A, winged helix 2, GST fusion (KAT6A, Homo sapiens, UniProt Q92794, residues 85-181)
Technique: protein binding microarray
Molecule type: double-stranded DNA, one strand shown
Medium: in vitro
Concentration: not given
Setting: 8-mer, flanks averaged, mean of 2 arrays, mostly near background
Baseline: not given
Direction: higher = stronger binding
Construct (chain): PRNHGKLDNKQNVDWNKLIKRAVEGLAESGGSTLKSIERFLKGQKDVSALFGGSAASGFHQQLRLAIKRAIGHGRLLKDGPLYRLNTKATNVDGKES
Sequence	E-score
CCGTAGGA	0.152
GCACTTGA	-0.111
AGGAGTTG	-0.152
TAAGTACA	-0.212
CGTTAAGA	-0.0876
ACGGACCT	0.0305
CACTAGCA	-0.0393

Set 3
Target: Fragile X messenger ribonucleoprotein 1, C-terminal low-complexity region (Fmr1, Mus musculus, UniProt P35922)
Technique: RNA Bind-n-Seq
Molecule type: RNA
Medium: in vitro
Concentration: 200 nM
Setting: whole 134-nt RNA, ends assumed
With: 150 mM LiCl
Baseline: input library
Direction: higher = stronger binding
Each molecule: 7-deaza-guanosine replaces G
Sequence	log2 enrichment
GGGAGUUCUACAGUCCGACGAUCCACAGACAACACGCACCCACACAGACACAGAGGGAAGGGGUUGGGAUGGGGACAGGGUGCACAGCAGGGCAGGGUAGGACCCCAGCCCCUUGGAAUUCUCGGGUGUCAAGG	0.245
GGGAGUUCUACAGUCCGACGAUCCUCAAGUCCUGUGCUACACAUCGUAUGUACCGAAUCGGGGCCGGGCCGGGCCGGAAAGUAUUAUGUUACGCCGUUCGGAUCUGCACUUCCUGGAAUUCUCGGGUGUCAAGG	1.03
GGGAGUUCUACAGUCCGACGAUCAAGUCCUGUGCUACACAUCGUAUGUACCGAAUCGGGGAAAAGGAAAAGGAAAAGGGAAAGUAUUAUGUUACGCCGUUCGGAUCUGCACUUUGGAAUUCUCGGGUGUCAAGG	-0.748
GGGAGUUCUACAGUCCGACGAUCGGGGGUGACCGCCGGAGCGCGGCGUGAGCCCUCCCCCUUGGGAUCCCGCAGCUGACCAGUCGCGCUGACGGACAGACAGACAGACACCGCUGGAAUUCUCGGGUGUCAAGG	-1.11

Single results of other studies
Molecule	target	test	test system	setting	how to read	endpoint	value
PhoQ, residues 284 288 289 292 302 303 SSTLSG	PhoP, residues 12 14 15 18 19 HLGGL (Escherichia coli, UniProt P23836)	Sort-seq, measured: YFP reporter	E. coli	PhoQ-PhoP variant library, with: 10 µM Mg2+	baseline: high Mg2+ state, higher = stronger signaling	fold induction	11.1
